Published values of several laboratories.
Each numbered part is a random draw from the data of one study; scales do not carry over between parts.

Block 1 — technique: RNA Bind-n-Seq; form: RNA; matrix: in vitro; concentration: 365 nM; baseline: no-protein control; reading: higher = stronger binding
Target: RNA binding protein fox-1 homolog 2, RRM domain, GST-SBP tag (RBFOX2, Homo sapiens, UniProt O43251-10, residues 100-194)
Setting: natural RNA segment, single round, ends assumed
Shared flanks, not repeated: GGGAGUUCUACAGUCCGACGAUC … UGGAAUUCUCGGGUGCCAA
Target sequence (chain): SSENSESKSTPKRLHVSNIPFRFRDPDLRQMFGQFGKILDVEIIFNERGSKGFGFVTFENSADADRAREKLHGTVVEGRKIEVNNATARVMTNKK
| Strand | RBNS enrichment (R) |
| --- | --- |
| CCACCCCCACUGAAAAUGGAAUCUUCACUCCCUUGACUACUUGAUUACUGCAUUUCUGCUCUUGGUUCUAGCUGUGUGAACUCUAACUUCUUUCCUGAUGGGGAUCUCUG | 1.84 |
| AGAUGUCUGUUGGAUUCAUGUCUUUUGCUAUAGUUCAGUAGCUUCUGCUAAAUUUCACUGAUUUUAAUCAUGCUGGAGACCUUAACUCCCAUCCUGAUACAUCCUGAAGU | 0.257 |
| UGCCAAAUGACCACCCGUCAGGCAGAUUGAGGGCCAUCACUUCAAACAUAGAUUAAAUUUGUUUAGCACUAAACUAUCCCUAGAGUAAAUUUUUAUGCUUGACAAGUUGU | 0.321 |
| GGUGGCUGGUGCCUCUCCCUAGGAAAGCUUUGGCGUCAUUCAACUCAAGUGUUCUUGUUCUUGUUGCCAAAGAGAAAAGGAUUUUCCUCCACUGUGGAUUCUCCCUCUCC | 0.497 |
| UGCUCAGCCCUUCCUAGAAGAGUCAGGAAGGGAAAGCCAGAAGGGGCACGCCUGCCCAGCCUCGCAUGCCAGAGCCUGGGGCAUCCCAGAGCCCAGGGCAUCCCAUGGGG | 3.48 |
| AAGGCCAAAUCAAAACCCCGGAAGCGGUUAGAAGAAAGCCAAGGAGGCCCCAAGCCAGGGGCAGUGAGGUCAUCUAGCAGUGACAGGAUCCCAUCAGGCUCCUUGGAAAG | 0.199 |
| UUGCCUUCUAGACACUGAAGGCAAAUCUCCUUUGUCCAUUUACCUGGAAACCAGAAUGAUUUUGACAUACAGGAGAGCUGCAGUUGUGAAAGCACCAUCAUCAUAGAGGA | 0.229 |
| ACAUAGUGUGAGUCAAGGCCAGCUUGGGCUACAUGACACCCUGUCCAGGGGAGGAGGUGGGCAAGCUAACCGAAAGACUCCAUCUUUGUGUGCCCCACCCCUGGACAUAU | 0.317 |

Block 2 — technique: protein-binding microarray; form: double-stranded DNA, one strand shown; matrix: in vitro; concentration: 2200 nM top; setting: 60-bp whole probe; with: salmon DNA 0.4 mg/ml; baseline: random background probes; reading: higher = stronger binding
Target: Interferon regulatory factor 7, full length, phosphomimetic (IRF7, Homo sapiens, UniProt Q92985, residues 1-503, S471D/S472D/S475D/S476D/S477D/S483D/S484D/S487D)
Sequence of UniProt Q92985 (whole entry, unmodified, looked up): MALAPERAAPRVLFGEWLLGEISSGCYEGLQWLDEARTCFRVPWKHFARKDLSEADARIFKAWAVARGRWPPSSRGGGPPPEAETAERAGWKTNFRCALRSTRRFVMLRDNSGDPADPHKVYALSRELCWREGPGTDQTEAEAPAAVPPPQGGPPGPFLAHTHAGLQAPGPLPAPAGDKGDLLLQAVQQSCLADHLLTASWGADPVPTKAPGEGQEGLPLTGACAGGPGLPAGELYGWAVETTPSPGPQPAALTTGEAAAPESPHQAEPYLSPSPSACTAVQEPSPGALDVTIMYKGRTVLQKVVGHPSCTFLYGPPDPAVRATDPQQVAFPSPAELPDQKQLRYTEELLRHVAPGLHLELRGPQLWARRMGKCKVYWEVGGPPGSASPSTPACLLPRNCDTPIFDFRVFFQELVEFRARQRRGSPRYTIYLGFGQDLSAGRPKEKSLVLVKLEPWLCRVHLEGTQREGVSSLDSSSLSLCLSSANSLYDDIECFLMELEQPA
Shared flanks, not repeated: GCCTAGCAC … GTGCTAGGTCTTGATTCGCTTGACGCTGCTG
| Strand | fitted relative affinity [z-score] |
| --- | --- |
| TTAGATCTCAGCCTCGATTA | 0.125 |
| TCACATTTACATTTTAGACT | 1.85 |
| TTATGGTGTGGAGAAGGCAC | -0.598 |
| TTAGGTTTCCTCTCCCTTTA | 2.23 |
| TTAGGACTGCGTATCCTTTA | 0.0481 |
| GATGGTTTCGGTTTCGGGAC | 15.9 |
| TTAGATACCAGTTTCGATTA | 5.78 |
| TCATGTCTGATTATTTAACT | 0.719 |
| GACGGTTTCCGTATCCTGAC | 3.69 |

Block 3 — technique: competition protein-binding microarray; form: double-stranded DNA, one strand shown; matrix: in vitro; concentration: 2 µM; with: Cbf1 competitor, 0.05 µM; reading: higher = stronger binding; shared flanks, not repeated: … GTCTTGATTCGCTTGACGCTGCTG
Target: Phosphate system positive regulatory protein PHO4, full length, GST-tagged (PHO4, Saccharomyces cerevisiae, UniProt P07270, residues 1-312)
Setting: whole 60-bp probe, lowest competitor level
Construct (chain): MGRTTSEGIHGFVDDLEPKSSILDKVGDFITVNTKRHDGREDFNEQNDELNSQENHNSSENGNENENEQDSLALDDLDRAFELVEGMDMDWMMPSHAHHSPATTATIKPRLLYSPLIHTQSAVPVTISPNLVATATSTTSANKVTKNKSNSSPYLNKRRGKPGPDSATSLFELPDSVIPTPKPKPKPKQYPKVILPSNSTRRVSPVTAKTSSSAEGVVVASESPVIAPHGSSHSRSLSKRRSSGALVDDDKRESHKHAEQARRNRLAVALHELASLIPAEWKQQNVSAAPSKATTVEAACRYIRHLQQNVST
| Strand | fluorescence intensity [a.u.] |
| --- | --- |
| TATGTCCAATAGAGTCGCGTGCGATACAACTTCGTC | 9720 |
| CATACCCAACCTTTTCACGTGTGTTAAGATATTTGT | 14200 |
| TAGGATCGACTTACCCACGTCCAACTGCTGTTGACG | 5190 |
| AAAGCGGTAATTTGTCACTCCACTTCACATATCTAT | 3690 |
| GCAGGGAGCGTCCAACACGTCAGCGTCAATTCCTTC | 3890 |
| CATACCCAACCTTGCAATGTGGGTGAAGATATTTGT | 6740 |
| CTAATCAGCAAGACACATGTGCCTTGCAGTAGGGCA | 10900 |

Further values, each from its own experiment
| Substance | target | assay | test system | setting | scale | quantity | value |
| --- | --- | --- | --- | --- | --- | --- | --- |
| PhoQ, residues 284 288 289 292 302 303 ASVMEA | PhoP, residues 12 14 15 18 19 YHFSH (Escherichia coli, UniProt P23836) | Sort-seq, item: YFP reporter | E. coli | PhoQ-PhoP variant library, with: 10 µM Mg2+ | baseline: high Mg2+ state, higher = stronger signaling | fold induction | 6.68 |

A few entries again (block 2):
| Strand | fitted relative affinity [z-score] |
| --- | --- |
| GATGGTTTCGGTTTCGGGAC | 15.9 |
| TTAGATACCAGTTTCGATTA | 5.78 |
| TCATGTCTGATTATTTAACT | 0.719 |
| GACGGTTTCCGTATCCTGAC | 3.69 |
